Results pooled from the literature.
Lines come from different studies, so protocols differ. ± gives the spread as reported.
Organism: Trypanosoma brucei

CN1CCN(c2ccc(-c3ccc4c(Nc5cnccn5)cnnc4c3)cc2)CC1  EC50 (cell growth): 9900 ± 3200 nM
C[n+]1cc(NC(=O)c2ccc3ccc4ccc(C(=O)Nc5cc6ccccc6[n+](C)c5)nc4c3n2)cc2ccccc21  upregulated genes (RNA-seq; Lister 427 bloodstream form; 2 × EC50, 4 h, log2 FC 1, FDR 0.05; baseline: untreated): 139 genes
CN1CCN(c2ccc(-c3ccc4nncc(Nc5cnccn5)c4c3)cc2)CC1  EC50 (cell growth): 460 ± 40 nM
Cc1cnc(CNC(=O)c2c(=O)c3ccc(N4CCCN(C)CC4)nc3n3c2sc2ccccc23)cn1  differentially expressed G4-containing genes (RNA-seq; Lister 427 bloodstream form; 2 x EC50, 4 h, overlap, with peaks, G4 ChIP-seq; baseline: untreated): 10 genes
Cc1ccc(Nc2cnnc3ccc(-c4ccc(N5CCN(C)CC5)cc4)cc23)cn1  EC50 (cell growth): 1000 ± 340 nM
COc1cc(NC(=O)c2ccc(C#N)cc2)ccc1S(N)(=O)=O  IC50 (cell viability, MTS; Lister 427; 48 h): < 5 µM
CN(C)CCNC(=O)c1cccn2c(=O)c3cc4ccccc4cc3nc12  differentially expressed G4-containing genes (RNA-seq; Lister 427 bloodstream form; 2 × EC50, 4 h, ChIP-seq G4 peak overlap): 10 genes
O=C1Nc2ccc(C(=O)c3ccco3)cc2C1=Cc1cc(Cl)c(O)c(Cl)c1  selectivity (unit not given; baseline: pEC50 T. brucei minus pTC50 HepG2): 1.5
CN1CCN(c2ncc(-c3ccc4nncc(Nc5ncccn5)c4c3)cn2)CC1  EC50 (cell growth): 2800 ± 100 nM
CCn1cc(-c2ccnc3[nH]ccc23)c(-c2cccc(NC(=O)Nc3ccc(OCc4ccccc4)cc3)c2)n1  selectivity (unit not given; baseline: pEC50 T. brucei minus pTC50 HepG2): 1.5
COc1ccc(Nc2cnnc3cc(-c4ccc(N5CCN(C)CC5)cc4)ccc23)nc1  EC50 (cell growth): 690 ± 360 nM
CN1CCC(n2cnc(-c3ccc(F)cc3)c2-c2ccnc(N)n2)CC1  selectivity (unit not given; baseline: pEC50 T. brucei minus pTC50 HepG2): > 2
COc1cc(NC(=O)c2ccc([N+](=O)[O-])cc2)ccc1S(N)(=O)=O  IC50 (cell viability, MTS; Lister 427; 48 h): < 5 µM
Cc1ccc2c(c1)C(=NNc1ccc(S(N)(=O)=O)cc1)C(=O)N2  selectivity (unit not given; baseline: pEC50 T. brucei minus pTC50 HepG2): 1.3
COc1cc(NC(=O)c2cccc(C(F)(F)F)c2)ccc1S(N)(=O)=O  IC50 (cell viability, MTS; Lister 427; 48 h): > 20 µM
CN1CCC(C(=O)Nc2n[nH]c3nc(-c4ccc(O)cc4)c(Br)cc23)CC1  selectivity (unit not given; baseline: pEC50 T. brucei minus pTC50 HepG2): > 2.6
COc1ccc(Nc2cnnc3ccc(-c4ccc(N5CCN(C)CC5)cc4)cc23)nc1  EC50 (cell growth): 1300 ± 290 nM
C[C@]1(O)C[C@@H](c2nc(-c3ccc4ccc(-c5ccccc5)nc4c3)c3c(N)nccn32)C1  EC50 (cell growth): > 3000 nM
Cc1ccc(Cn2cc(C(=O)NN)c(=O)c3cc(Oc4ccccc4)ccc32)cc1  EC50 (parasite growth; Squib 427): 500 nM
COc1ccc(Nc2cnnc3cc(-c4cnc(N5CCN(C)CC5)nc4)ccc23)cc1Cl  EC50 (cell growth): 3000 ± 380 nM
Nc1ncnc2occ(-c3ccc(NC(=O)Nc4cc(C(F)(F)F)cc(C(F)(F)F)c4)cc3)c12  selectivity (unit not given; baseline: pEC50 T. brucei minus pTC50 HepG2): 0.3

Excerpt of the above:
CN1CCN(c2ncc(-c3ccc4nncc(Nc5ncccn5)c4c3)cn2)CC1  EC50 (cell growth): 2800 ± 100 nM
CN1CCC(n2cnc(-c3ccc(F)cc3)c2-c2ccnc(N)n2)CC1  selectivity (unit not given; baseline: pEC50 T. brucei minus pTC50 HepG2): > 2
Cc1ccc(Cn2cc(C(=O)NN)c(=O)c3cc(Oc4ccccc4)ccc32)cc1  EC50 (parasite growth; Squib 427): 500 nM
